Results from different studies.
Each line is one published result; not all experiments were run side by side. Several values in a cell are separate wells, animals, samples, runs or records.
Sequence of UniProt P49327 (whole entry, looked up): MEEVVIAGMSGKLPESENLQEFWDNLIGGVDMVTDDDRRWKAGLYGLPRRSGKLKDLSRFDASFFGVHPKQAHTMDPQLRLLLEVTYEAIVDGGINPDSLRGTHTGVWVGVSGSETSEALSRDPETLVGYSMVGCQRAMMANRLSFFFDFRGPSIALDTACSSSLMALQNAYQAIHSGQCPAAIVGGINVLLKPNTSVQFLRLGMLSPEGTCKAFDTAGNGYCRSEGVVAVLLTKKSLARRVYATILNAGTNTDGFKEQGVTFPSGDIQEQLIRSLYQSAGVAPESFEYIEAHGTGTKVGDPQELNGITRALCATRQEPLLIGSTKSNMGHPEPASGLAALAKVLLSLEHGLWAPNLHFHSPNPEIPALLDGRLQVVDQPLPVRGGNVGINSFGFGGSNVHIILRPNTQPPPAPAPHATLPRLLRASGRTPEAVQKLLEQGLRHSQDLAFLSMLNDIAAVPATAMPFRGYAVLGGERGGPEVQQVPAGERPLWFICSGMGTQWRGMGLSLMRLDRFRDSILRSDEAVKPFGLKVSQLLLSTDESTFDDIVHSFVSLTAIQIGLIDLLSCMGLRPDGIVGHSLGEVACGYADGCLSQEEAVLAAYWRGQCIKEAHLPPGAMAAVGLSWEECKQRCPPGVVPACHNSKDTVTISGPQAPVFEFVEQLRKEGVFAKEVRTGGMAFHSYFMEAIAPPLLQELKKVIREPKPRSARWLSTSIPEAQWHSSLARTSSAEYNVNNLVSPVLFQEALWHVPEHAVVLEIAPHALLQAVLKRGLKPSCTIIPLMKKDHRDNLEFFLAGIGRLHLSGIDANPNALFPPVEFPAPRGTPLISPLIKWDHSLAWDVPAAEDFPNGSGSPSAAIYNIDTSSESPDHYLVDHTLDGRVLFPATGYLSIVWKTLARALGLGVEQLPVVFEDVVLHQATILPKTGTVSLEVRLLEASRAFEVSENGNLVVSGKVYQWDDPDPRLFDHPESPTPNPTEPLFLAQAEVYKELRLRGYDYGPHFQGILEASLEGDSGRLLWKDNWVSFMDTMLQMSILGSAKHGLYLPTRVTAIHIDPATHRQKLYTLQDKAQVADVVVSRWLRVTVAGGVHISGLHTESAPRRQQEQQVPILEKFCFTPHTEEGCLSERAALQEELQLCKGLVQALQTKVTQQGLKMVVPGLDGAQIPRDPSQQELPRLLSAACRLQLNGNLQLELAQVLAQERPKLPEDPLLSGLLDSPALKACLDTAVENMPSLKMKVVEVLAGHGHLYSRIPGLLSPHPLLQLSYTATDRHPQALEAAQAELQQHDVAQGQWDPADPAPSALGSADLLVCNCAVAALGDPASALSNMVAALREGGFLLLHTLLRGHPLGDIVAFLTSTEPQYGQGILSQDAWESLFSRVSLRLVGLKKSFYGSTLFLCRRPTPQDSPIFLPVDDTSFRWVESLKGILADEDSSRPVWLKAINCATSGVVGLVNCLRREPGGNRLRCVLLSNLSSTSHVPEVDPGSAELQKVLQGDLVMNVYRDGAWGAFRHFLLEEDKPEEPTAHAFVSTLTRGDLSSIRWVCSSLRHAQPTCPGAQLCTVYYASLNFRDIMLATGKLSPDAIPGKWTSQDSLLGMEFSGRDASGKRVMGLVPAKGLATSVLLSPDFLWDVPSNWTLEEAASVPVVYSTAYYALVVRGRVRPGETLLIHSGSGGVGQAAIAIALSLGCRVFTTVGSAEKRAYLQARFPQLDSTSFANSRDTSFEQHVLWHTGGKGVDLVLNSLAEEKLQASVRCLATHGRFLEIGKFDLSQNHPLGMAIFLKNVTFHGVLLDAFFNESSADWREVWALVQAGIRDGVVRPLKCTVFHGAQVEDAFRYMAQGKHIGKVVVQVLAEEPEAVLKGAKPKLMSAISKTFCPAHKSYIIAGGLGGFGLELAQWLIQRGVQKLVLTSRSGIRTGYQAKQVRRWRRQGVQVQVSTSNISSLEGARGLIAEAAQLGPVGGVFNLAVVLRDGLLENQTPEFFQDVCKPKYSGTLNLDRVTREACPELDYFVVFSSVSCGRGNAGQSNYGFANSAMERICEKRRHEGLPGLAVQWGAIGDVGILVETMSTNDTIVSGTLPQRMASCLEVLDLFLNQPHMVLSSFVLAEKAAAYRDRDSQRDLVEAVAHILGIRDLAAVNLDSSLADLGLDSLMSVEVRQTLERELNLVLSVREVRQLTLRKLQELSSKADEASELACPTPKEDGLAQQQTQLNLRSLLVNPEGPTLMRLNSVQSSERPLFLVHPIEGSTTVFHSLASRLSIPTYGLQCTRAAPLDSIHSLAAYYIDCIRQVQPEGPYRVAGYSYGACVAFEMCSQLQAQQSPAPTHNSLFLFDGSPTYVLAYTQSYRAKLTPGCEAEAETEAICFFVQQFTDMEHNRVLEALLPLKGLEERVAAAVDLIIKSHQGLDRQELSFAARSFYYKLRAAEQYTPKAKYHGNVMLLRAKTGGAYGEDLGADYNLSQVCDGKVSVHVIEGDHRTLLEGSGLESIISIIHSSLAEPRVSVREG

| SMILES | target or system | test | test system | conditions | scale | endpoint | value |
| --- | --- | --- | --- | --- | --- | --- | --- |
| CC(C)C[C@@H](N)C(=O)N[C@H](Cc1ccccc1)C(=O)N[C@H](Cc1ccccc1)C(=O)N[C@H](C)C(=O)N[C@H](CCC(=O)O)C(N)=O | NGF-differentiated PC-12 neurons | – | – | 5 µM, 24 h | relative to: untreated | viability | 89% |
| Cn1cc2cc(C(F)(F)c3nnc4ccc(-c5cnn(C6CC6)c5)nn34)c(F)cc2n1 | MKN-45 | CCK-8 | – | 0.0005 µM, 72 h | relative to: untreated | viability | 99.2% and 98.9% and 99.1% |
| O=[N+]([O-])c1ccc(-c2nn(-c3ccccc3)c3sc(NC(c4ccccc4O)P(=O)(Oc4ccccc4)Oc4ccccc4)nc23)cc1 (stereo not shown) | BNL mouse liver cells | SRB | – | 0.1 µM, 10% fetal bovine serum | – | viability | 102% |
| CC(C)C[C@H](NC(=O)[C@H](C)NC(=O)[C@@H](NC(=O)[C@H](CCCNC(=N)N)NC(=O)[C@H](CC(C)C)NC(=O)[C@H](Cc1c[nH]c2ccccc12)NC(=O)[C@@H]1CCCN1C(=O)[C@@H](N)CCCCN)C(C)C)C(=O)N[C@@H](CS)C(=O)N1CCC[C@H]1C(=O)NCC(=O)O | HEp-2 | WST-1 | – | 64 µM, 24 h | – | viability | 106% and 99.1% and 101% |
| COCCCNC(=O)C1CCN(Cc2cc3ccccc3n2Cc2cccc(Cl)c2)CC1 | Vero-E6 | CellTiter-Glo ATP | – | 72 h, second round 5-point | relative to: DMSO 0%, hyamine -100%, more negative, more toxic | maximum response | -9.91% |
| Nc1ncnc2c1ncn2[C@@H]1O[C@@H]2COP(=O)(O)O[C@H]3[C@@H](O)[C@H](n4cnc5c(=O)[nH]cnc54)O[C@@H]3COP(=O)(O)O[C@H]2[C@H]1O | HFF-1 | – | – | 0.1 µg/mL | – | viability | 89% |
| C[C@H]1CN(c2n[nH]c3nc(N[C@H]4CC[C@H](NS(=O)(=O)CCC(F)(F)F)CC4)ncc23)CCO1 | Fatty acid synthase (FASN, Homo sapiens, UniProt P49327) | biochemical | – | – | – | IC50 | ≥ 20 µM |
| O=C1CCP(=S)(c2ccccc2)CC1 | SW-620 | trypan blue | – | IC50, 72 h | – | viability | 98% |
| CC(C)C[C@@H](NC(=O)[C@H](N)CCCCN)C(=O)N1CCC[C@@H]1C(=O)N[C@H](Cc1ccccc1)C(=O)N[C@H](Cc1ccccc1)C(N)=O | NGF-differentiated PC-12 neurons | – | – | 80 µM, 24 h | relative to: untreated | viability | 100% |
| Cc1ccc2c(CNCC3(N4CCCC4)COC3)c[nH]c2c1 | HEK | – | – | 30 µM, 48 h, 10% FBS | relative to: DMSO | viability | 40.4% |
| CN(C)c1ccc(C(Nc2nc3c(-c4ccc([N+](=O)[O-])cc4)nn(-c4ccccc4)c3s2)P(=O)(Oc2ccccc2)Oc2ccccc2)cc1 (stereo not shown) | BNL mouse liver cells | SRB | – | 1 µM, 10% fetal bovine serum | – | viability | 92.8% |
| CCCN1CCN(CCCNC(=O)c2cc3c(Cl)nc4ccccc4c3s2)CC1 | Vero-E6 | CellTiter-Glo ATP | – | concentration not given, 72 h, retest 8-point duplicates | relative to: DMSO 0%, hyamine -100%, more negative, more toxic | cytotoxicity efficacy | -29.6% |
| COc1ccc(Nc2nn3c(-c4ccccc4)ccnc3c2C(=O)Nc2ccc(Cl)cc2)cc1 | WI-38 | MTT | serum-free medium | 250.00 µg/mL, 48 h | – | viability | 75.8% |
| CC(C)C[C@@H](N)C(=O)N[C@H](Cc1ccccc1)C(=O)N[C@H](Cc1ccccc1)C(=O)N[C@H](C)C(N)=O | NGF-differentiated PC-12 neurons | – | – | 80 µM, 24 h | relative to: untreated | viability | 85.6% |
| COc1ccc(Nc2nn3c(-c4ccccc4)ccnc3c2C(=O)Nc2ccccc2)cc1 | WI-38 | MTT | serum-free medium | 500.00 µg/mL, 48 h | – | viability | 39.5% |
| CC(C)C[C@@H](N)C(=O)N1CCC[C@@H]1C(=O)N[C@H](Cc1ccccc1)C(=O)N[C@H](Cc1ccccc1)C(=O)N[C@H](C)C(=O)N[C@H](CCC(=O)O)C(N)=O | NGF-differentiated PC-12 neurons | – | – | 5 µM, 24 h | relative to: untreated | viability | 100% |

A few entries again:
| SMILES | target or system | test | test system | conditions | scale | endpoint | value |
| --- | --- | --- | --- | --- | --- | --- | --- |
| CC(C)C[C@@H](NC(=O)[C@H](N)CCCCN)C(=O)N1CCC[C@@H]1C(=O)N[C@H](Cc1ccccc1)C(=O)N[C@H](Cc1ccccc1)C(N)=O | NGF-differentiated PC-12 neurons | – | – | 80 µM, 24 h | relative to: untreated | viability | 100% |
| Cc1ccc2c(CNCC3(N4CCCC4)COC3)c[nH]c2c1 | HEK | – | – | 30 µM, 48 h, 10% FBS | relative to: DMSO | viability | 40.4% |
